Experimental data gathered from unrelated publications.
Numbered parts are unrelated; each lists some results of a single study. Positions count from the first letter of the parent shown.

Block 1
Target: Histone acetyltransferase KAT6A, winged helix 1, GST fusion (KAT6A, Homo sapiens, UniProt Q92794, residues 1-85)
Technique: protein binding microarray
Form: double-stranded DNA, one strand shown
Medium: in vitro
Tested at: not given
Notes: 8-mer, flanks averaged, mean of 2 arrays, mostly near background
Baseline: not given
Direction: higher = stronger binding
Construct (chain): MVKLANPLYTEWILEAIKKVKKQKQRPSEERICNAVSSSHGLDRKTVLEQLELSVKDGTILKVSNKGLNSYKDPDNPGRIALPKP
| Oligonucleotide | E-score |
| --- | --- |
| AGCCCAGC | -0.101 |
| ATCGTGAG | -0.00126 |
| CTCACGGA | 0.192 |
| ACCCAAAG | -0.184 |
| CAGCAATC | -0.134 |
| ATTGATTA | 0.000375 |
| AAGGTCGC | 0.169 |
| CGATTTAA | -0.157 |
| AAGTATGA | -0.204 |
| ACATGAGT | 0.0516 |
| AAACAAAA | -0.104 |
| AGCTCCAC | -0.166 |
| GGCCAGGA | -0.0338 |
| GCAGTGGA | -0.103 |
| ACCCCCAC | 0.0237 |
| GTGGACGA | -0.054 |
| AGATGCTG | -0.177 |
| GCGCCGCA | 0.441 |
| AAACGGTC | 0.233 |
| ATGTACCA | -0.06 |
| CCAGGACG | 0.0315 |
| GGTCGGTA | 0.158 |

Block 2
Target: RNA binding protein fox-1 homolog 2, RRM domain, GST-SBP tag (RBFOX2, Homo sapiens, UniProt O43251-10, residues 100-194)
Technique: RNA Bind-n-Seq
Form: RNA
Medium: in vitro
Tested at: 365 nM
Notes: natural RNA segment, single round, ends assumed
Baseline: no-protein control
Direction: higher = stronger binding
Constant ends, left off below: GGGAGUUCUACAGUCCGACGAUC … UGGAAUUCUCGGGUGCCAA
Construct (chain): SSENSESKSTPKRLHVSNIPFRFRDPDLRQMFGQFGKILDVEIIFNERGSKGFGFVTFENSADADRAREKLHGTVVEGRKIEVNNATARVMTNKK
| Oligonucleotide | RBNS enrichment (R) |
| --- | --- |
| UGGAGCAGGAUCCUAAGGACGCACAAUAUCAGUUGUGCGUGCUGUAAAGGGACAAACCGAGGAAGUAGAGGAAGCUGCGGCACUGUGACCCAUUCAAGGCUAGCACAGUU | 0.366 |
| AAAAUUUCAAGGGGUAUUAUUUAAAUGAUGAUUAUCUGGCUGAAUUAUGUGUGAGCUAGAAUCUAGGGUAGCUGUCCACUUCUUUUUCUGUUGUCCUGACAGUAAAGCAA | 0.663 |
| AACCUAUCUGUAAAAUCAGAUGUUUUUUCUUUGUAGAGAAGGAUUUCUGGUGCUUUUGCUUACUAAGAGACCGAUAUUCUUAAGUUGUUUUCUUGUUUUAACAGCCUUGA | 0.453 |
| CCAGCCGCCUAGGACACAGCCAACCCCGGCCCCUGGUCAGGCCCCUGCAGCUGCCUCACACCGCCCCUUGUGCUCGCCUCAUAGGUGUCUAUUUGGACUCUAAGCUCUAC | 0.456 |
| AUAUGACAGCGCUUUGUAAAGCAGGCCAGUGGCAAGCUGGCCCACAGUAGAGAAACACUGUAGUUCACAGACCAUGCAACCGUGUUUCCACGAGAUGUUAUUACAACAAA | 0.246 |
| AUAUCUUUUCUUGUAUUCCCAUAUUUCUAGACAAUGAUUUUUGUAAGACAAUAAAUUUAUUCAUUAUAGAUAUUUGCGCCUGCUCUGUUUACUUGAAGAAAAAAGCACCC | 0.546 |
| UGCUUCUCAUUUGUUUAUGUAUUCAUGAAUACUGCAUAGUCCUGAUUCAGAGACUUUUGCUUUGCUUUCCAACUUGUAUCCCUACAUUCUCACAACAGCCUUCUUACCUC | 0.554 |
| ACCCCUUUUUAUACAGAUGUUUUUAUAUGUGUGUGCUCAGGCCUGCCGAGAUGCAGGGCAAAGUUGCUGUGGCAUCUUUGUUCCUCUCCCUGGGUCUGCACUCCCUCCCC | 0.41 |

Block 3
Target: Prothrombin, mature alpha-thrombin (F2, Homo sapiens, UniProt P00734)
Technique: aptamer microarray, sandwich
Form: DNA with 2'F-ANA
Medium: in vitro
Tested at: 200 nM
Notes: whole 15-mer aptamer, many near background
Added: Cy3 exosite-II aptamer, 400 nM
Direction: higher = stronger binding
Oligonucleotide: GGTTGGTGTGGTTGG
| Modification | mean fluorescence intensity [a.u.] |
| --- | --- |
| 2'F-ANA at 1 2 3 6 7 9 10 13 | 61.6 |
| 2'F-ANA at 1 2 3 5 12 | 128 |
| 2'F-ANA at 2 6 12 13 14 | 152 |
| 2'F-ANA at 1 2 7 8 9 11 13 | 145 |
| 2'F-ANA at 1 3 5 7 8 10 11 13 14 | 78.4 |
| 2'F-ANA at 2 4 5 7 8 9 12 | 178 |
| 2'F-ANA at 1 3 4 5 7 8 9 15 | 70 |
| 2'F-ANA at 1 3 5 6 7 8 9 11 12 15 | 108 |
| 2'F-ANA at 4 6 7 11 12 14 15 | 90.6 |
| 2'F-ANA at 3 5 7 10 | 55.3 |
| 2'F-ANA at 2 3 4 9 10 13 | 241 |
| 2'F-ANA at 6 7 8 12 13 14 15 | 234 |
| 2'F-ANA at 2 4 8 9 11 12 15 | 412 |
| 2'F-ANA at 2 5 6 8 9 10 13 15 | 49.7 |
| 2'F-ANA at 5 6 7 9 10 11 12 13 | 58.2 |
| 2'F-ANA at 3 6 8 9 10 11 14 | 375 |
| 2'F-ANA at 1 3 4 7 8 10 11 13 14 15 | 51.1 |
| 2'F-ANA at 1 2 4 6 7 8 9 10 12 | 87.9 |
| 2'F-ANA at 2 3 4 5 6 12 14 15 | 69.2 |
| 2'F-ANA at 1 3 7 8 11 12 13 | 488 |
| 2'F-ANA at 3 5 6 7 8 10 13 | 52.1 |
| 2'F-ANA at 4 6 7 8 10 11 13 | 64.2 |
| 2'F-ANA at 1 2 3 4 5 7 11 14 15 | 67.9 |
| 2'F-ANA at 2 3 5 6 8 10 11 12 13 14 | 52.7 |
| 2'F-ANA at 4 5 9 11 12 13 14 | 62.7 |

Block 4
Target: CCNE2, cyclin fold, Cln2 fusion (human)
Technique: yeast growth competition, sequencing
Medium: yeast
Notes: weak parent motif
Baseline: not given
Direction: higher = stronger binding
Starting sequence: ITGB3BP docking peptide (human); MPVKRSLKLDGLL; partner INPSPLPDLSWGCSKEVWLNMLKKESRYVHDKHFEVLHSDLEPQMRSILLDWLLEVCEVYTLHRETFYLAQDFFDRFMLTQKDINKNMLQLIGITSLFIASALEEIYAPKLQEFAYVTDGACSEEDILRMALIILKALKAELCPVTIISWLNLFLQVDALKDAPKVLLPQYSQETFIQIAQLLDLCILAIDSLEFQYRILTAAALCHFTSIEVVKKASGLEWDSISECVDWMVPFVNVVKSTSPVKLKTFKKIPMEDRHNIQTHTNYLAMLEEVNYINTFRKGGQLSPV
| Variant | normalised enrichment score |
| --- | --- |
| R5A | -0.168 |
| L12A | 0.358 |
| L13A | 1.2 |
| P2A | 0.729 |
| M1A | -0.0603 |
| L9F | 1.17 |
| K8A | 1.08 |

For quick reference, copied from above (block 3):
| Modification | mean fluorescence intensity [a.u.] |
| --- | --- |
| 2'F-ANA at 2 4 5 7 8 9 12 | 178 |
| 2'F-ANA at 1 3 4 5 7 8 9 15 | 70 |
| 2'F-ANA at 1 3 5 6 7 8 9 11 12 15 | 108 |
| 2'F-ANA at 4 6 7 11 12 14 15 | 90.6 |
| 2'F-ANA at 3 5 7 10 | 55.3 |
